Published values gathered from unrelated publications.
Protocols differ between the studies behind these lines. Numbers after ± are the reported error.
KDM1A: Lysine-specific histone demethylase 1A (KDM1A, Homo sapiens, UniProt O60341)
Rhomboid protease AarA: Rhomboid protease AarA (Providencia stuartii, UniProt P46116)
Chain of UniProt P46116 (whole entry, looked up): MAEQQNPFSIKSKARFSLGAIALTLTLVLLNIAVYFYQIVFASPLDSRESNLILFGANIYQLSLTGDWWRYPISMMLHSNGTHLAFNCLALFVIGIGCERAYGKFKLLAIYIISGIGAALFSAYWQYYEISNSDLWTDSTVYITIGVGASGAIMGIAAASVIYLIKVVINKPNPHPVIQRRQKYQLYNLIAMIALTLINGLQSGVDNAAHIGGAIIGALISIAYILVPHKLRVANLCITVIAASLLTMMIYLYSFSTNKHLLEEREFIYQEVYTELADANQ
Chain of UniProt P12295 (whole entry, looked up): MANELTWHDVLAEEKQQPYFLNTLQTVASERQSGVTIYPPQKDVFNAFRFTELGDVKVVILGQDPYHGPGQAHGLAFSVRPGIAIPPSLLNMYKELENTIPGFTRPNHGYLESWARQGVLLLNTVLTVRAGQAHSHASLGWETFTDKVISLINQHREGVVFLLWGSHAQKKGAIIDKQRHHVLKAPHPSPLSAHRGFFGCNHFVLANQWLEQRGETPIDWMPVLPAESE
Chain of UniProt O75417 (whole entry, looked up): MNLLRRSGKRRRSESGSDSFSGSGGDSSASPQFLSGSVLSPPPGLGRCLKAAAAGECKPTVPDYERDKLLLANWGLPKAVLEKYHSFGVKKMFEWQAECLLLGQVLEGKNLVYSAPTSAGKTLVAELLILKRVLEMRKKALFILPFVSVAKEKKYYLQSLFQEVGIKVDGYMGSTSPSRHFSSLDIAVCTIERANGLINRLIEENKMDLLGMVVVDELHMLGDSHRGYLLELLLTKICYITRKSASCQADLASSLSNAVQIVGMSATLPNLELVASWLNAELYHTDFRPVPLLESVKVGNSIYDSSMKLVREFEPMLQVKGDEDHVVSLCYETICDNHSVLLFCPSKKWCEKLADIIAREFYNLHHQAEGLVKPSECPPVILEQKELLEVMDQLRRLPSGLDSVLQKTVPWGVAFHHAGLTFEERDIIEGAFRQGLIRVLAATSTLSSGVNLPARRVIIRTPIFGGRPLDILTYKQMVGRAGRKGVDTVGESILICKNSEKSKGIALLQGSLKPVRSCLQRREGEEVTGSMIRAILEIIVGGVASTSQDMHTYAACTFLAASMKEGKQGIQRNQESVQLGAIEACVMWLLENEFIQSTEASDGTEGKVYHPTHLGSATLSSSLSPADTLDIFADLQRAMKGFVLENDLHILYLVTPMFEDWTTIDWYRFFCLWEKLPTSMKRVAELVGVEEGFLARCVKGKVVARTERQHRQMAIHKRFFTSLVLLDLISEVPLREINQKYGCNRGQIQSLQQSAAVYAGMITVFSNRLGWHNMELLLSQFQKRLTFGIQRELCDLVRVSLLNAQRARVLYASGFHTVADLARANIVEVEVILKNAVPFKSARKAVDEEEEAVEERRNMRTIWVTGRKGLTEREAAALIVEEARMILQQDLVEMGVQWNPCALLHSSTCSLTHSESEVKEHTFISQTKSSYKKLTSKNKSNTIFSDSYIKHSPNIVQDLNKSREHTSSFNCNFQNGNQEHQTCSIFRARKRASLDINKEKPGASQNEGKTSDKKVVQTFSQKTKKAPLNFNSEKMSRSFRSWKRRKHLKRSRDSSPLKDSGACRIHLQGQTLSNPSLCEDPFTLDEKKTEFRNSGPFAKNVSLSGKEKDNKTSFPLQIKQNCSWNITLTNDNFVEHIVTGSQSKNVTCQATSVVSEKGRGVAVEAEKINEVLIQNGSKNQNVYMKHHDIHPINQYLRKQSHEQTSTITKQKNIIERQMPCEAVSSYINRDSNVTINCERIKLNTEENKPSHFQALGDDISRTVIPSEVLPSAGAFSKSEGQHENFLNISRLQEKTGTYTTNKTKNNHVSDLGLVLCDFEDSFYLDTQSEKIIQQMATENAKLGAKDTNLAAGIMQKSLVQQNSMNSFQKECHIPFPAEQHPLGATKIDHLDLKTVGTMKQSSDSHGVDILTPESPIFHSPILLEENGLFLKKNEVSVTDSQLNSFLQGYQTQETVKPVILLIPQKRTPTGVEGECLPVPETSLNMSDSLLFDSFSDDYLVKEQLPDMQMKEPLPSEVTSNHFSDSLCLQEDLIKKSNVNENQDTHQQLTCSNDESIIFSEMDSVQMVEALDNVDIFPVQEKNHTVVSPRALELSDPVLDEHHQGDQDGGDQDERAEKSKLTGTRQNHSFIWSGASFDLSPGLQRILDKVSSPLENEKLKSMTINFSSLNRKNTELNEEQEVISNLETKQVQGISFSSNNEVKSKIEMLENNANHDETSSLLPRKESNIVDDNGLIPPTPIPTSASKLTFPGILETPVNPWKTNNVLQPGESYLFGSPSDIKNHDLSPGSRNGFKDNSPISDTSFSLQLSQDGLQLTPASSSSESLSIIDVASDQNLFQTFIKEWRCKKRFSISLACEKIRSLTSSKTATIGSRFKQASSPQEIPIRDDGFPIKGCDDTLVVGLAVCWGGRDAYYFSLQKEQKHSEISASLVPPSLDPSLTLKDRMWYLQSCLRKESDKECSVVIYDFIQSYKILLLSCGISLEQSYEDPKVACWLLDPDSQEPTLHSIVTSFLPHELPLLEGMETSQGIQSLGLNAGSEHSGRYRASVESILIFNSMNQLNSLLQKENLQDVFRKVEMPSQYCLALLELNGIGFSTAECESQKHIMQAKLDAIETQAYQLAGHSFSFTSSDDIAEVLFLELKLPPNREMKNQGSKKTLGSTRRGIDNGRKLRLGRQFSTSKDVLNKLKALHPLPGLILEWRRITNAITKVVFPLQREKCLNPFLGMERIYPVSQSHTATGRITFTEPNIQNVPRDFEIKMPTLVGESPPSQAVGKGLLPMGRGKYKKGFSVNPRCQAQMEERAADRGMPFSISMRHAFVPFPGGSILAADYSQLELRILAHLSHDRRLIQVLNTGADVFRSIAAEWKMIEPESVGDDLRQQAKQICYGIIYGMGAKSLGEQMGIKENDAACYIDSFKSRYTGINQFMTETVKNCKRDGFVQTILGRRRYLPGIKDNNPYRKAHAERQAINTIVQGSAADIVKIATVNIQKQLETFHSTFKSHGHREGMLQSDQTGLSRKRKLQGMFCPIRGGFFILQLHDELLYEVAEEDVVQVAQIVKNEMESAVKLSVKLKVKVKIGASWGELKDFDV
Chain of UniProt P45983 (whole entry, looked up): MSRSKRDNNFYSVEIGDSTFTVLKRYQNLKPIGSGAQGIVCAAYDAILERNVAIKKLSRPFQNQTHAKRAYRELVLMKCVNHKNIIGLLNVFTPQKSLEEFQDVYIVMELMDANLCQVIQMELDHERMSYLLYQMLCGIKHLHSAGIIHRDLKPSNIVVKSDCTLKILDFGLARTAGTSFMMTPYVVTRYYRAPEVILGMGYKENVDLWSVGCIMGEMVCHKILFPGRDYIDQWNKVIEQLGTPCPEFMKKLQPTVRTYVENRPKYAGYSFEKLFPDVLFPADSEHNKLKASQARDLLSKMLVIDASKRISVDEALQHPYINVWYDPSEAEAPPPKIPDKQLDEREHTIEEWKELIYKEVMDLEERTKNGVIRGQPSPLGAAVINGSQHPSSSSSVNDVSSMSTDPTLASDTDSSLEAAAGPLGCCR
Chain of UniProt Q96S53 (whole entry, looked up): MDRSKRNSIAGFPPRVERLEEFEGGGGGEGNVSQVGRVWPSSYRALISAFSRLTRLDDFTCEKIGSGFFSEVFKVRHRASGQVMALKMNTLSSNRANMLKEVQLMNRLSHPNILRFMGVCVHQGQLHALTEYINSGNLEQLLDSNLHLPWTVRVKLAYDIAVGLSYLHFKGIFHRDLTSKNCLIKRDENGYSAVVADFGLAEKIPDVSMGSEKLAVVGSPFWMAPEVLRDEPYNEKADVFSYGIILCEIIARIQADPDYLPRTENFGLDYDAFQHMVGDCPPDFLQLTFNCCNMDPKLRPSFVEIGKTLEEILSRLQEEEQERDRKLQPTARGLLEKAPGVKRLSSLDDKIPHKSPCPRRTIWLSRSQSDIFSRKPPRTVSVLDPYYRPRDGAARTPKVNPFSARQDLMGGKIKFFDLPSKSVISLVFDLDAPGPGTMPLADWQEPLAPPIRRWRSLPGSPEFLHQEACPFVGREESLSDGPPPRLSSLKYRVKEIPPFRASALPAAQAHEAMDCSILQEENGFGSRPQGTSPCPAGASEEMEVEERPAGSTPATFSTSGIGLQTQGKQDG
Chain of UniProt P07711 (whole entry, looked up): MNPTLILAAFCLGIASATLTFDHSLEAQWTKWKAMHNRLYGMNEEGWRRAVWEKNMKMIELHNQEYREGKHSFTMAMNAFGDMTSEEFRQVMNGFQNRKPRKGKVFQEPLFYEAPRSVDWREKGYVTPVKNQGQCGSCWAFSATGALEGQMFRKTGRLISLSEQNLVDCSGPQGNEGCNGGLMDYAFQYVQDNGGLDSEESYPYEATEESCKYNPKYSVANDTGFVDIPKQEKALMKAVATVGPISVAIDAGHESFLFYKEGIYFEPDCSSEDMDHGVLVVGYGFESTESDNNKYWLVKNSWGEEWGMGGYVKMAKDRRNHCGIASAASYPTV
Chain of UniProt Q9HB29 (whole entry, looked up): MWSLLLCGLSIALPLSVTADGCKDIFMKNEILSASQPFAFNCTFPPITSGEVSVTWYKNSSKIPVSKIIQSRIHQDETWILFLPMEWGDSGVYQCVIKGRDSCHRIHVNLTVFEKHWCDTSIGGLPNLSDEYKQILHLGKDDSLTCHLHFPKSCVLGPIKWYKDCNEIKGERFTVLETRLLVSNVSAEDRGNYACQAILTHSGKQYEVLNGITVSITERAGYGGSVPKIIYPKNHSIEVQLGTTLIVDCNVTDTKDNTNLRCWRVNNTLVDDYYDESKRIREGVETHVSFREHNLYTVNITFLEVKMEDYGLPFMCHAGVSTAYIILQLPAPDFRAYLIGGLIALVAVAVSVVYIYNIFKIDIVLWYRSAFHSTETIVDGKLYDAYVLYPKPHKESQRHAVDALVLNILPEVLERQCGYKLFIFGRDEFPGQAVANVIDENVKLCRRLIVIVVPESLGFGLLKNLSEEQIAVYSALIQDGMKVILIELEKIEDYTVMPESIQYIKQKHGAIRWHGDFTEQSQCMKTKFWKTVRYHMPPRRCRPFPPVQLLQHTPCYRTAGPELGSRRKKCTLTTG

For `CNC(=O)c1cccc([C@@H]2C[C@H]2NC2CCC2)c1` (racemic), the remaining activity was 34% (KDM1A; demethylase activity, inhibitor; 50 µM, with: H3K4me2 peptide).
`COC(=O)[C@@]1(C)C=C(C(=O)Nc2cccc(C(=O)Nc3ccc(Nc4nccc(-c5cccnc5)n4)c(C)c3)c2)C(=O)CC1` gave a remaining activity of 1.05 (Mitogen-activated protein kinase 8 (MAPK8, Homo sapiens, UniProt P45983); enzyme activity, inhibitor; 2.79e-05 µM, 18 h, unit not given, with: GSH 10 mM pre-incubation; reference: vehicle).
`COc1ccc(NC(=O)Nc2ccc3c(c2)C(=O)N(C(C)CO)CC(C)C(CN(C)Cc2ccc4c(c2)OCO4)O3)cc1` (stereo not shown) has a remaining activity of 99% (Tyrosine-protein kinase ABL1 (Abl1, Mus musculus, UniProt P00520); kinase activity; 0.03 µM; reference: control).
`CC(C)[C@@H]1NC(=O)[C@H](Cc2ccccc2)NC(=O)CSC[C@@H](C(N)=O)NC(=O)[C@H](CCC(=O)O)NC(=O)[C@H](CO)NC(=O)[C@H](Cc2c[nH]c3cccc(Cl)c23)NC(=O)[C@H](C2CCCCC2)NC(=O)[C@H](C(C)C)NC(=O)[C@H](Cc2ccc(O)cc2)NC(=O)[C@H](CC(=O)O)NC(=O)[C@H](Cc2c[nH]c3ccccc23)NC(=O)[C@H](Cc2ccc(N)nc2)NC(=O)[C@H](Cc2c[nH]c3ccc(Cl)cc23)NC(=O)[C@H](CCC(=O)O)NC1=O` has a remaining activity of 99.4% (Interleukin-1 receptor-like 2 (IL1RL2, Homo sapiens, UniProt Q9HB29); reporter gene (SEAP), inhibitor, HEK-Blue IL-36R reporter; HEK-Blue IL-36R cells; 0.015 µM, 6 h, with: IL-36γ 10 ng/mL).
For `COc1ccccc1-c1ccncc1C(=O)Nc1nnc(OCc2ccc(Cl)cc2)s1`, the remaining activity was 78% (DNA polymerase theta, helicase domain (POLQ, Homo sapiens, UniProt O75417); ATPase activity, ADP-Glo; 0.004 µM; reference: 0 µM cpd).
`O=c1cnnc(Nc2ccc(O)cc2)[nH]1` gave a remaining activity of 96 ± 3.5% (ung (Escherichia coli, UniProt P12295); enzyme activity, inhibitor; concentration not given, counter-screen).
`Cc1nnc(NC(=O)c2cc([C@@H]3C[C@H]3NC3CCC3)ccc2Br)s1` (relative stereo) gave a remaining activity of 16% (KDM1A; demethylase activity, inhibitor, Amplex Red; 6.667 µM, with: H3K4me2 peptide; reference: vehicle).
For `Cc1ccc(C2CC(=O)N2S(=O)(=O)c2cccc(Cl)c2)cc1` (stereo not shown), the remaining activity was 98% (Rhomboid protease AarA; substrate cleavage, gel-based; 100 µM; reference: DMSO).
For `Cc1ccc(C[C@H](NC(=O)CN2CCCc3cc4cc(C(=O)NCCNC(=O)CCCC[C@@H]5SC[C@@H]6NC(=O)N[C@@H]65)c(=O)oc4cc32)C(=O)NC/C=C/S(=O)(=O)c2ccccc2)cc1`, the remaining activity was 3% (Procathepsin L (CTSL, Homo sapiens, UniProt P07711); inhibitor; 5 µM, 60 min, with: Z-Phe-Arg-pNA; reference: uninhibited control).
For `O=C(Nc1nncs1)c1cccc([C@@H]2C[C@H]2NC2CCC2)c1`, the remaining activity was 72.3% (KDM1A; demethylase activity, inhibitor, Amplex Red; 0.07407 µM, with: H3K4me2 peptide; reference: vehicle).
The remaining activity of `Nc1ncc(-c2cc(-c3cnn(CC(F)(F)F)c3)ncc2F)nc1C(=O)NC1CNCC(F)C1` (stereo not shown) is reported as 108% (Dual specificity testis-specific protein kinase 2 (TESK2, Homo sapiens, UniProt Q96S53); enzyme activity; 1 µM; reference: DMSO control).
With `Cc1ccc(S(=O)(=O)N2C(=O)CC2c2ccccc2)cc1` (stereo not shown) the remaining activity was 77% (Rhomboid protease AarA; enzyme activity, inhibitor; 100 µM).
`COC(=O)c1cccc([C@@H]2C[C@H]2NC2CCC2)c1` gave a remaining activity of 41.4% (KDM1A; demethylase activity, inhibitor; 16.67 µM, with: H3K4me2 peptide).

Repeated from above:
For `CNC(=O)c1cccc([C@@H]2C[C@H]2NC2CCC2)c1` (racemic), the remaining activity was 34% (KDM1A; demethylase activity, inhibitor; 50 µM, with: H3K4me2 peptide).
